Measured values pooled from the literature.
Numbered parts are unrelated; each lists some results of a single study. Substitutions count along the parent as printed.

Series 1 — target: CCNF, cyclin fold, Cln2 fusion (human); method: yeast growth competition, sequencing; sample: yeast; notes: strong parent motif; baseline: not given; reading: higher = stronger binding; quantity: normalised enrichment score; starting sequence: viral docking peptide; YKVKRRLVFGADD
Substitution = YRVKRRLVFGADD [K2R]; value = 8.71
Substitution = YKVKRRLVFGCDD [A11C]; value = 8.78
Substitution = YKVKRRLVFGAKD [D12K]; value = 8.85
Substitution = YKVKRRLVFQADD [G10Q]; value = 8.63
Substitution = YKVKRRLVFYADD [G10Y]; value = 7.8
Substitution = YKVKRRLVFAADD [G10A]; value = 9.59
Substitution = YPVKRRLVFGADD [K2P]; value = 7.44
Substitution = YKVKRRGVFGADD [L7G]; value = 0.383
Substitution = YKVKRRLVFGIDD [A11I]; value = 8.68
Substitution = YKVKRNLVFGADD [R6N]; value = 7.55
Substitution = YKVKRRLVFGRDD [A11R]; value = 9.13
Substitution = YKVKRRLVFGAED [D12E]; value = 8.22
Substitution = YKVKRRLTFGADD [V8T]; value = 8.12

Series 2 — method: Spec-seq; molecule type: double-stranded DNA, one strand shown; sample: in vitro; concentration: not given; notes: whole probe, mean of replicates; baseline: not given; reading: lower = stronger binding; quantity: relative binding energy; shared flanks, not repeated: GAGTCGTCTCGTCAGCAC … CCGTAGAGCACTCAGGTC
Target: Transcription factor SOX-2, HMG box (Sox2, Mus musculus, UniProt P48432, residues 41-119)
UniProt P48432, sequence (41-119, looked up): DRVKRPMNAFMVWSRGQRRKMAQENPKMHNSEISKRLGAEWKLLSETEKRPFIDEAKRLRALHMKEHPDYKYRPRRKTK
Sequence = AATTGTT; value = -2.52 ln ratio
Sequence = CATGGTC; value = -0.0576 ln ratio
Sequence = GGCGGTT; value = 1.5 ln ratio
Sequence = AAAGGTT; value = -1.67 ln ratio
Sequence = GAACGTT; value = 1.15 ln ratio
Sequence = CATAAGG; value = -0.458 ln ratio
Sequence = ACAAGTT; value = -0.182 ln ratio
Sequence = CATTATA; value = -1.82 ln ratio

Series 3 — method: DNA-protein interaction ELISA; molecule type: double-stranded DNA, one strand shown; sample: in vitro, bacterial lysate; concentration: not given; notes: whole dsDNA probe, crude lysate protein; baseline: highest signal in screen; reading: higher = stronger binding; quantity: relative absorbance
Target: Probable WRKY transcription factor 11, DNA-binding domain (WRKY11, Arabidopsis thaliana, UniProt Q9SV15, residues 228-325)
Target sequence (chain): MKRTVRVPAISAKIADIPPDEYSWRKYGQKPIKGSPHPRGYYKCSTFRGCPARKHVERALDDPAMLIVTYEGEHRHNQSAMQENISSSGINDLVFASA
Sequence = AAAAAACACTTAACTGAGTGGGATTGAAAA; value = 17.6 % of maximum
Sequence = AAAAAACATTCCTAGTTCATGTTACTAAAA; value = 16.4 % of maximum
Sequence = AAAAAATACTGGCTGTCTCGTTCACAAAAA; value = 16.1 % of maximum
Sequence = AAAAAAGGTAATGCCGGTCCCAGTATAAAA; value = 13.5 % of maximum
Sequence = AAAAAACATGTCGCACCTGTACTAACAAAA; value = 16.4 % of maximum
Sequence = AAAAAATCAGTCTGAGACTTACAACTAAAA; value = 18.4 % of maximum
Sequence = AAAAAATTGTGCCTCTGCCCTCGCCTAAAA; value = 15.3 % of maximum
Sequence = AAAAAAAACGTCTGGCGGGGTTGAGAAAAA; value = 16.4 % of maximum

Single results of other studies — method: cross-linking MS
Substance = SEPTIN6 (Homo sapiens, UniProt Q14141); partner = SEPTIN7 (Homo sapiens, UniProt Q16181); notes = hits only; quantity = interaction screen; value = cross-linked
Substance = PARP1 (Homo sapiens, UniProt P09874); partner = BTN1A1 (Homo sapiens, UniProt Q13410); sample = cell fractions; together with = DMTMM; quantity = cross-linked residues; value = D807 to K294
Substance = EPRS1 (Homo sapiens, UniProt P07814); partner = ACO2 (Homo sapiens, UniProt Q99798); sample = cell fractions; together with = DSSO; quantity = cross-linked residues; value = K318 to K305
Substance = GPD2 (Homo sapiens, UniProt P43304); partner = IMMT (Homo sapiens, UniProt Q16891); notes = hits only; quantity = interaction screen; value = cross-linked

Some of these lines once more (series 1):
Substitution = YKVKRRLVFAADD [G10A]; value = 9.59
Substitution = YPVKRRLVFGADD [K2P]; value = 7.44
